{"data": "Published values collected from several papers", "note": "Each numbered part is a random draw from the data of one study; scales do not carry over between parts.", "chain of UniProt P30291 (whole entry, looked up)": "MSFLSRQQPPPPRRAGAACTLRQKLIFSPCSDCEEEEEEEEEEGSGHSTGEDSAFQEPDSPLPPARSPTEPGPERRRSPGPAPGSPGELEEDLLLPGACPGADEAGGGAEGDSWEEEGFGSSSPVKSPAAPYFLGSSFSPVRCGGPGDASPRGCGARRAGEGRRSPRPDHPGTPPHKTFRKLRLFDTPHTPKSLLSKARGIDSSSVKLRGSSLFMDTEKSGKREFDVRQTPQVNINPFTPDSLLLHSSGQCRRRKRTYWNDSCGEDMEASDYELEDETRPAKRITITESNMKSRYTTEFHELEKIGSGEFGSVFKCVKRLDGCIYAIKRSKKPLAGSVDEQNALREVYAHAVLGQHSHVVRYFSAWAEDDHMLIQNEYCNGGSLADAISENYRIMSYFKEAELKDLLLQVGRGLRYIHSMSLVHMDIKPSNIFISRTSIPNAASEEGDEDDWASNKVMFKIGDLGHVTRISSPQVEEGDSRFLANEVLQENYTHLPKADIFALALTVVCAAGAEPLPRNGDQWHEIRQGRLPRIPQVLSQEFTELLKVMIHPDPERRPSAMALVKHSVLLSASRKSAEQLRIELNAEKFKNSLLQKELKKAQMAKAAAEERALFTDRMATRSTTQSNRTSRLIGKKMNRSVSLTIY", "chain of UniProt Q13555 (whole entry, looked up)": "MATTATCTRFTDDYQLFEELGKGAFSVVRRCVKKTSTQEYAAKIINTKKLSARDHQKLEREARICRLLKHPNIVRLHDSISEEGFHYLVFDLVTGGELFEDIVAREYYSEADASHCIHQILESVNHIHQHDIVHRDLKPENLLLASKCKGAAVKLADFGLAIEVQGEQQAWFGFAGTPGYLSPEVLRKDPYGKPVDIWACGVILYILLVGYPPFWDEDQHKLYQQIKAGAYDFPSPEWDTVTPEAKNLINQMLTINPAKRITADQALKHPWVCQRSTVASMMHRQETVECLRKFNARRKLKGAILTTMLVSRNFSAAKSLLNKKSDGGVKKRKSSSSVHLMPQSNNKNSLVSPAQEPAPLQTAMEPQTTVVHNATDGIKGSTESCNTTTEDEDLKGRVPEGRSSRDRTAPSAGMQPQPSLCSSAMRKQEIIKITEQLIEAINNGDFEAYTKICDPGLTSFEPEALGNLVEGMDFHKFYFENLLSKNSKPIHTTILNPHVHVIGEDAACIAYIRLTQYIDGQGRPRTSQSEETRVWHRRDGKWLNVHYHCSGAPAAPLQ", "chain of UniProt P47898 (whole entry, looked up)": "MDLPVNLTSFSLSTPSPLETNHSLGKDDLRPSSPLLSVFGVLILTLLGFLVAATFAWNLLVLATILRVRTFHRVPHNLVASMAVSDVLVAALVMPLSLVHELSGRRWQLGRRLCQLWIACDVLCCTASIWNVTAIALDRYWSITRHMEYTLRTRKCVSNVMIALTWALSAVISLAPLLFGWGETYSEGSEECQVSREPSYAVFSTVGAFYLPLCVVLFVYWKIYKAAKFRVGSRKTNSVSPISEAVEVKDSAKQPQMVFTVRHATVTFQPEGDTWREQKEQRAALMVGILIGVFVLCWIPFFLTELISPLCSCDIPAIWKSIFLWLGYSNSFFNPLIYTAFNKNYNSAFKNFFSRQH", "chain of UniProt O14976 (whole entry, looked up)": "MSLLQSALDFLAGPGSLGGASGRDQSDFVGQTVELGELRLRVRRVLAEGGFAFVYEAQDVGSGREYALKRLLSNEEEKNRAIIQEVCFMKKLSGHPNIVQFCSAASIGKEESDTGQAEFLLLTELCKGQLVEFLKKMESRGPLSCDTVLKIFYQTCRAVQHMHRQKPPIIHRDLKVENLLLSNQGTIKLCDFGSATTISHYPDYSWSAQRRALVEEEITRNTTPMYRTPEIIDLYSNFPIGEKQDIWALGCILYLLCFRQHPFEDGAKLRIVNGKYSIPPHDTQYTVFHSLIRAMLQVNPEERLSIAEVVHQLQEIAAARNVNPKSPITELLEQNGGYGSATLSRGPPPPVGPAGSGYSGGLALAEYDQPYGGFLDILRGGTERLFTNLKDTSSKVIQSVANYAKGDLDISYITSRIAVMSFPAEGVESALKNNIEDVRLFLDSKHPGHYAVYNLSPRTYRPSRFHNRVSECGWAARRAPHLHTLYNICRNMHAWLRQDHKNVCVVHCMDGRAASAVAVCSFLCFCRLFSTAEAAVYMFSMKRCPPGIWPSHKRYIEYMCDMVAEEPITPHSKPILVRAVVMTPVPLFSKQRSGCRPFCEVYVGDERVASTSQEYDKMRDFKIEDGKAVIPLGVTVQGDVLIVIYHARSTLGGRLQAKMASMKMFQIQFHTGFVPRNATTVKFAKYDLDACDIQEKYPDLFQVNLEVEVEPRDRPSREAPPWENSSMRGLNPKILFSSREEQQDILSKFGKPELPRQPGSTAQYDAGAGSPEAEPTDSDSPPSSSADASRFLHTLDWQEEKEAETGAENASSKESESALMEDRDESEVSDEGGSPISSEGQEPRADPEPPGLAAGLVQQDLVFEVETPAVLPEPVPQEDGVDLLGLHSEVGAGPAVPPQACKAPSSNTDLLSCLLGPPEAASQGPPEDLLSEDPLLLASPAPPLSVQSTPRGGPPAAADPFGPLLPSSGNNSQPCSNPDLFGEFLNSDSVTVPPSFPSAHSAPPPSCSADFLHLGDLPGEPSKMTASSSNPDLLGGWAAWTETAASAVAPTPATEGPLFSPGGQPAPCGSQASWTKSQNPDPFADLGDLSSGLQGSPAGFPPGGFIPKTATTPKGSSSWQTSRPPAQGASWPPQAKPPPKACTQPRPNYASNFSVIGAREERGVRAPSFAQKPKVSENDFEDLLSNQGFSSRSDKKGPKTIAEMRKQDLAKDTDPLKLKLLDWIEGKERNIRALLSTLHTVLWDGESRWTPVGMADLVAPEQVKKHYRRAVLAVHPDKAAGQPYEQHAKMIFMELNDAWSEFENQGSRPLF", "chain of UniProt Q8TD19 (whole entry, looked up)": "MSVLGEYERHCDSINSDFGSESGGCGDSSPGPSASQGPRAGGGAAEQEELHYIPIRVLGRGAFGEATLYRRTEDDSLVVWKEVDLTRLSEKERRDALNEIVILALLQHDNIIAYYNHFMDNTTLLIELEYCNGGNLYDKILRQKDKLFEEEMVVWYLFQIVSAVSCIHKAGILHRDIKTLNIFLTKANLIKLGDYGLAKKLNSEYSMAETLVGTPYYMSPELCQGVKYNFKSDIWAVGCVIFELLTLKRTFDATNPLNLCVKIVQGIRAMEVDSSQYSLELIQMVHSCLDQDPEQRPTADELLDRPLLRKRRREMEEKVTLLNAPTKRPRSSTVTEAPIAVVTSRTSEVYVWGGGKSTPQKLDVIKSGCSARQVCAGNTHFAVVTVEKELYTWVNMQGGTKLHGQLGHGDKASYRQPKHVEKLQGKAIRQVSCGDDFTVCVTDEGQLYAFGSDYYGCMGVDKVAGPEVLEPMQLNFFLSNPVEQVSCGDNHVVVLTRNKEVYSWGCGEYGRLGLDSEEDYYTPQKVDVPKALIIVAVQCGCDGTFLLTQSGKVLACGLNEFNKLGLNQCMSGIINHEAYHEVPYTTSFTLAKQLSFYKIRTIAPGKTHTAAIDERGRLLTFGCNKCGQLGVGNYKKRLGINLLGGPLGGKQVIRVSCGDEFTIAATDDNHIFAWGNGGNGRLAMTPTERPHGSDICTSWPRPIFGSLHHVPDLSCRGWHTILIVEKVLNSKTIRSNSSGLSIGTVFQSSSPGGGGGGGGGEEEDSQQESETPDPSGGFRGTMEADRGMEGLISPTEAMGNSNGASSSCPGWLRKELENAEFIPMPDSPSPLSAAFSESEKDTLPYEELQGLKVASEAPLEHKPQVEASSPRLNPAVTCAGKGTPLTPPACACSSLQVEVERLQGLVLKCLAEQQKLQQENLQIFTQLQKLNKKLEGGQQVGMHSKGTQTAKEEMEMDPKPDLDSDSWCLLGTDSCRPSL", "chain of UniProt P41595 (whole entry, looked up)": "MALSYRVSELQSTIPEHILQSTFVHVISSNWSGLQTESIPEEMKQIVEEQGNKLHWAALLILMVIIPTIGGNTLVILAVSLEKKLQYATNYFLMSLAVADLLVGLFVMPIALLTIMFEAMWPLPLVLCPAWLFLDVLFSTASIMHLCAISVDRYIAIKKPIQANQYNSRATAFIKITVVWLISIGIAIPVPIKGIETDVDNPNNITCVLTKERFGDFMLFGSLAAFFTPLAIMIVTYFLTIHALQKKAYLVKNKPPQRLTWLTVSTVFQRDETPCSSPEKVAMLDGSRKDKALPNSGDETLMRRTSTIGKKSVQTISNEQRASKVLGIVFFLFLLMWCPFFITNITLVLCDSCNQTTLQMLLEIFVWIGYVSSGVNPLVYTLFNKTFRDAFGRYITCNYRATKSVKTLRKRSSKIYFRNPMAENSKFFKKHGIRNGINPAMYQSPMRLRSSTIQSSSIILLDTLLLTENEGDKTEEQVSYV"}
{"data": "Study 1", "target": "Ephrin type-A receptor 8 (EPHA8, Homo sapiens, UniProt P29322)", "observed": "enzyme activity", "action": "inhibitor", "tested at": "0.5 µM", "baseline": "control", "Target sequence (P29322 1-1005)": "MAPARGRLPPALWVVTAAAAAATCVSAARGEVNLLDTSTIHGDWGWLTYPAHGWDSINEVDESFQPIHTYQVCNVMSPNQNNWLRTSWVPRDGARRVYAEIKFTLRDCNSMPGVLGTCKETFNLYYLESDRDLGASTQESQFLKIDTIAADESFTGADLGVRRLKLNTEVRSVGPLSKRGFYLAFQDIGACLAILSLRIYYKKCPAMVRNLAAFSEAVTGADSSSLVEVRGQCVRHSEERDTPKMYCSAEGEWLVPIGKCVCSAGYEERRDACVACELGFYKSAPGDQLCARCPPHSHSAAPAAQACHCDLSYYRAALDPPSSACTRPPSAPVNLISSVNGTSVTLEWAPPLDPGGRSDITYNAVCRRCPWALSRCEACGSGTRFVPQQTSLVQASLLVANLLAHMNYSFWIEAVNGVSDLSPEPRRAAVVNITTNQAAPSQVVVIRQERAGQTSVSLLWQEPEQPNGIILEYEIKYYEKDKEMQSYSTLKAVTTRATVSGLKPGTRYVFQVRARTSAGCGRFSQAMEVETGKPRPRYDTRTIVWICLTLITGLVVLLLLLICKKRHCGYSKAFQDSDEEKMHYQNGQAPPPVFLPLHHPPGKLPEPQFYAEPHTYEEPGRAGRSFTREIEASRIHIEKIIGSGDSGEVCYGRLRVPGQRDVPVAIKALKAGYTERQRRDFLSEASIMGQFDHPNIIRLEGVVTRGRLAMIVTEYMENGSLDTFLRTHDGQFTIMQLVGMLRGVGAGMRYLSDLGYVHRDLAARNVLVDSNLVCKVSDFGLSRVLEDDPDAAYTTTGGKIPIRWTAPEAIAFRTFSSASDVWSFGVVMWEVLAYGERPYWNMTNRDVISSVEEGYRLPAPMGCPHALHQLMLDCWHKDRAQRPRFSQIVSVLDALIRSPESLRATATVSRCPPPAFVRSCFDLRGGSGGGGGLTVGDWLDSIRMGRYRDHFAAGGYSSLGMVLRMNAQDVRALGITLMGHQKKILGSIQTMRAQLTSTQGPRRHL"}
{"SMILES": "C[S+]([O-])c1ccc(-c2nc(-c3ccncc3)c(-c3ccc(F)cc3)[nH]2)cc1 (centres unmarked)", "remaining activity [%]": 101}
{"SMILES": "COc1ccc(-c2cnc3c(-c4ccsc4)cnn3c2)cc1", "remaining activity [%]": 90.3}
{"SMILES": "CCOc1cc2ncnc(Nc3cccc(Br)c3)c2cc1OCC", "remaining activity [%]": 87.3}
{"SMILES": "CC(C)c1nn(-c2c(Cl)cccc2Cl)c2nc(Cc3ccc(OCCO)cc3)[nH]c(=O)c12", "remaining activity [%]": 102}
{"SMILES": "COc1cc2ncnc(N3CCN(C(=O)Nc4ccc(Oc5ccccc5)cc4)CC3)c2cc1OC", "remaining activity [%]": 92.5}
{"SMILES": "CS(=O)(=O)CCNCc1ccc(-c2ccc3ncnc(Nc4ccc(OCc5cccc(F)c5)c(Cl)c4)c3c2)o1", "remaining activity [%]": 99.5}
{"SMILES": "CN(C)CCCn1cc(C2=C(c3c[nH]c4ccccc34)C(=O)NC2=O)c2ccccc21", "remaining activity [%]": 102}
{"SMILES": "O=c1cc(N2CCOCC2)oc2c1ccc1ccccc12", "remaining activity [%]": 101}
{"SMILES": "COc1cc2ncc(-c3ccccc3)nc2cc1OC", "remaining activity [%]": 93.1}
{"SMILES": "Cn1cc(/C=C2\\C(=O)Nc3ccc(S(N)(=O)=O)cc32)c2ccccc21", "remaining activity [%]": 83.4}
{"SMILES": "O=C(Nc1ccc(Cl)cc1)c1ccccc1NCc1ccncc1", "remaining activity [%]": 87.6}
{"SMILES": "COc1ccc(Cl)cc1NC(=O)Nc1cc(C)nc2ccccc12", "remaining activity [%]": 97.8}
{"SMILES": "O=C1NC(=O)/C(=C/c2ccc3nccnc3c2)S1", "remaining activity [%]": 94.2}
{"SMILES": "COc1cc2ncnc(Nc3ccc(OCc4ccccc4)cc3)c2cc1OC", "remaining activity [%]": 102}
{"SMILES": "Cc1ccc(NC(=O)c2ccc(CN3CCN(C)CC3)cc2)cc1Nc1nccc(-c2cccnc2)n1", "remaining activity [%]": 94.7}
{"SMILES": "Nc1[nH]nc2nnc(-c3c(-c4ccccc4)nn4ccccc34)cc12", "remaining activity [%]": 100}
{"SMILES": "Cc1nc(Nc2ncc(C(=O)Nc3c(C)cccc3Cl)s2)cc(N2CCN(CCO)CC2)n1", "remaining activity [%]": 4.13}
{"SMILES": "CC(=O)O/N=C1/C(c2c(O)[nH]c3cc(Br)ccc23)=Nc2ccccc21", "remaining activity [%]": 96.3}
{"SMILES": "Cn1cnc2cc3c(Nc4cccc(Br)c4)ncnc3cc21", "remaining activity [%]": 85.4}
{"SMILES": "CCN1/C(=C/C(C)=O)Sc2ccc(OC)cc21", "remaining activity [%]": 98.5}
{"SMILES": "CCC(=O)Nc1ccc2ncnc(Nc3cccc(Br)c3)c2c1", "remaining activity [%]": 96.6}
{"SMILES": "CC(C)[C@H](CO)Nc1nc(Nc2cccc(Cl)c2)c2ncn(C(C)C)c2n1", "remaining activity [%]": 102}
{"data": "Study 2", "Structure (SMILES)": "Cc1nccc(COC(=O)N2C[C@@H]3[C@@H](CNC(=O)c4ccc5[nH]nnc5c4)[C@@H]3C2)n1", "observed": "binding", "method": "radioligand binding", "tested at": "10 µM"}
{"target": "HTR2B (Homo sapiens, UniProt P41595)", "inhibition [%]": 27.1}
{"target": "HTR5A (Homo sapiens, UniProt P47898)", "inhibition [%]": 13.2}
{"target": "HTR3A (Homo sapiens, UniProt P46098)", "inhibition [%]": 16.4}
{"data": "Study 3", "SMILES": "Cc1ccc(NC(=O)c2ccnc(C(F)(F)F)c2)cc1-c1cc(OCCO)nc(N2CCOCC2)c1", "tested at": "1 µM"}
{"target": "CAMK2G (Homo sapiens, UniProt Q13555)", "assay": "competitive binding panel", "scale": "baseline: vehicle", "remaining binding": "99%"}
{"target": "FGFR3 (Homo sapiens, UniProt P22607, G697C)", "assay": "competitive binding panel", "scale": "baseline: vehicle", "remaining binding": "72%"}
{"target": "PIK3CA (Homo sapiens, UniProt P42336, E545A)", "assay": "competitive binding panel", "scale": "baseline: vehicle", "remaining binding": "88%"}
{"target": "NEK9 (Homo sapiens, UniProt Q8TD19)", "assay": "competitive binding panel", "scale": "baseline: vehicle", "remaining binding": "100%"}
{"target": "PIP4K2B (Homo sapiens, UniProt P78356)", "assay": "competitive binding panel, item: PIP5K2B", "scale": "baseline: vehicle", "remaining binding": "100%"}
{"target": "SRPK3 (Homo sapiens, UniProt Q9UPE1)", "assay": "competitive binding panel", "scale": "baseline: vehicle", "remaining binding": "93%"}
{"target": "CAMK1D (Homo sapiens, UniProt Q8IU85)", "assay": "competitive binding panel", "scale": "baseline: vehicle", "remaining binding": "94%"}
{"target": "SRC (Homo sapiens, UniProt P12931)", "assay": "competitive binding panel", "scale": "baseline: vehicle", "remaining binding": "100%"}
{"target": "CDK11B (Homo sapiens, UniProt P21127)", "assay": "competitive binding panel, item: CDC2L1", "scale": "baseline: vehicle", "remaining binding": "45%"}
{"target": "PRKG2 (Homo sapiens, UniProt Q13237)", "assay": "competitive binding panel", "scale": "baseline: vehicle", "remaining binding": "86%"}
{"target": "COQ8A (Homo sapiens, UniProt Q8NI60)", "assay": "competitive binding, DiscoverX scanMAX binding", "remaining binding": "99%"}
{"target": "GAK (Homo sapiens, UniProt O14976)", "assay": "competitive binding panel", "scale": "baseline: vehicle", "remaining binding": "95%"}
{"target": "EPHB3 (Homo sapiens, UniProt P54753)", "assay": "competitive binding panel", "scale": "baseline: vehicle", "remaining binding": "91%"}
{"target": "WEE1 (Homo sapiens, UniProt P30291)", "assay": "competitive binding panel", "scale": "baseline: vehicle", "remaining binding": "88%"}
{"target": "EPHB2 (Homo sapiens, UniProt P29323)", "assay": "competitive binding panel", "scale": "baseline: vehicle", "remaining binding": "85%"}
{"target": "MAPK6 (Homo sapiens, UniProt Q16659)", "assay": "competitive binding panel, item: ERK3", "scale": "baseline: vehicle", "remaining binding": "78%"}
{"data": "Study 4", "cell line": "A-375", "tested at": "100 µM", "time": "18 h"}
{"SMILES": "CC(=O)/N=c1/sc(S(N)(=O)=O)nn1C", "viability [%]": 101}
{"SMILES": "C/C=C/c1ccc(OC)cc1", "viability [%]": 79.9}
{"SMILES": "CC(=O)O[C@H]1Cc2ccccc2N(C(N)=O)c2ccccc21", "viability [%]": 97.7}
{"SMILES": "O=C(CS(=O)(=O)Cc1ccccc1)N1CCOCC1", "viability [%]": 105}
{"SMILES": "Cc1cc(Nc2ncc(Cl)c(Nc3ccccc3S(=O)(=O)C(C)C)n2)c(OC(C)C)cc1C1CCNCC1", "viability [%]": 8.05}
{"SMILES": "Cc1nc(C)c(C)nc1C", "viability [%]": 107}
{"SMILES": "CN1CCN(c2c(F)cc3c(=O)c(C(=O)O)cn4c3c2OCN4C)CC1", "viability [%]": 88.7}
{"SMILES": "Cc1cccc(C)c1NC(=O)C1CCCCN1C (centres unmarked)", "viability [%]": 107}
{"SMILES": "COc1ccc2[nH]c(SCc3ncc(C)c(OC)c3C)nc2c1", "viability [%]": 81}
{"SMILES": "O=C(CCCCCCNC(=O)c1cnc(N(c2ccccc2)c2ccccc2)nc1)NO", "viability [%]": 57.2}
{"SMILES": "CC[C@H](C)[C@H](N)C1=N[C@H](C(=O)N[C@@H](CC(C)C)C(=O)N[C@H](CCC(=O)O)C(=O)N[C@H](C(=O)N[C@H]2CCCCNC(=O)[C@H](CC(N)=O)NC(=O)[C@@H](CC(=O)O)NC(=O)[C@H](Cc3cnc[nH]3)NC(=O)[C@@H](Cc3ccccc3)NC(=O)[C@H]([C@@H](C)CC)NC(=O)[C@@H](CCCN)NC2=O)[C@@H](C)CC)CS1", "viability [%]": 88}
{"SMILES": "N[C@@H](CCC(=O)N[C@@H](CS)C(=O)NCC(=O)O)C(=O)O", "viability [%]": 92.1}
{"SMILES": "Cc1ncc(C[n+]2csc(CCO)c2C)c(N)n1", "viability [%]": 91.5}
{"SMILES": "CC(C)(C)NCC(O)c1ccc(O)c(CO)c1 (centres unmarked)", "viability [%]": 98.8}
{"SMILES": "C=CCOC(Cn1ccnc1)c1ccc(Cl)cc1Cl (centres unmarked)", "viability [%]": 96.8}
{"note": "Repeated from above (study 1):"}
{"SMILES": "Cn1cc(/C=C2\\C(=O)Nc3ccc(S(N)(=O)=O)cc32)c2ccccc21", "remaining activity [%]": 83.4}
{"SMILES": "O=C(Nc1ccc(Cl)cc1)c1ccccc1NCc1ccncc1", "remaining activity [%]": 87.6}
{"SMILES": "COc1ccc(Cl)cc1NC(=O)Nc1cc(C)nc2ccccc12", "remaining activity [%]": 97.8}
{"SMILES": "O=C1NC(=O)/C(=C/c2ccc3nccnc3c2)S1", "remaining activity [%]": 94.2}
{"SMILES": "COc1cc2ncnc(Nc3ccc(OCc4ccccc4)cc3)c2cc1OC", "remaining activity [%]": 102}
{"SMILES": "Cc1ccc(NC(=O)c2ccc(CN3CCN(C)CC3)cc2)cc1Nc1nccc(-c2cccnc2)n1", "remaining activity [%]": 94.7}
{"SMILES": "Nc1[nH]nc2nnc(-c3c(-c4ccccc4)nn4ccccc34)cc12", "remaining activity [%]": 100}
{"SMILES": "Cc1nc(Nc2ncc(C(=O)Nc3c(C)cccc3Cl)s2)cc(N2CCN(CCO)CC2)n1", "remaining activity [%]": 4.13}
{"SMILES": "CC(=O)O/N=C1/C(c2c(O)[nH]c3cc(Br)ccc23)=Nc2ccccc21", "remaining activity [%]": 96.3}
